Measured values of several laboratories.
Compare with care: the assays were run in different laboratories.
Organism: human immunodeficiency virus 1

Cc1cccc2c(=O)c(C(=O)NNC(=O)c3ccc(F)cc3)c[nH]c12  EC50 (viral replication, refers to: p24; HeLa, NL4-3; 72 h): 75 µM
COc1ccc(-c2cc(=O)c3c(O)c(OC)c(O)c(OC)c3o2)cc1O  IC50 (viral transcription, luciferase reporter; MT2 transfected with pNL4.3-Luc; 48 h): > 20 µM
CC(C)(C)OC(=O)N1CCC(C(=O)N[C@@H](Cc2ccc3ccccc3c2)C(=O)O)(c2ccc3ccccc3c2)CC1  IC50 (viral replication, full replication cycle; NL4-3 wild type): ~58 µM
C=C(C)[C@@H]1CC[C@]2(CCCNCCN3CCN(S(C)(=O)=O)CC3)CC[C@]3(C)[C@H](CC[C@@H]4[C@@]5(C)CC[C@H](OC(=O)CC(C)(C)C(=O)O)C(C)(C)[C@@H]5CC[C@]43C)[C@@H]12  CA-SP1 accumulation (western blot; HEK293T transfected, subtype B NL4-3, virion lysates; 100 nM; relative to: total CA): 50 to 55%
CCOC(=O)C(C(=O)OCC)=C(c1ccccc1)c1ccccc1  inhibition (p24 expression, single-cycle replication; HeLa, NL4-3; 10 µM): 55.2%
C=C(C)[C@@H]1CC[C@]2(CCCNCCCN3CCCC3)CC[C@]3(C)[C@H](CC[C@@H]4[C@@]5(C)CC[C@H](OC(=O)CC(C)(C)C(=O)O)C(C)(C)[C@@H]5CC[C@]43C)[C@@H]12  CA-SP1 accumulation (western blot; HEK293T transfected, subtype B NL4-3, virion lysates; 100 nM; relative to: total CA): 25 to 30%
COc1cc(O)cc(O)c1C(=O)/C=C/c1ccccc1  IC50 (viral transcription, luciferase reporter; MT2 transfected with pNL4.3-Luc; 48 h): > 100 µM
O=C(O)[C@H](Cc1ccc2ccccc2c1)NC(=O)C1(c2ccc3ccccc3c2)CCN(S(=O)(=O)c2ccc([N+](=O)[O-])cc2)CC1  selectivity ratio (NL4-3 wild type; relative to: CC50 over IC50): 3.6

Repeated from above:
COc1ccc(-c2cc(=O)c3c(O)c(OC)c(O)c(OC)c3o2)cc1O  IC50 (viral transcription, luciferase reporter; MT2 transfected with pNL4.3-Luc; 48 h): > 20 µM
